Measurements of several laboratories.
Protocols differ between the studies behind these lines. Numbers after ± are the reported error.

Compound | assay | test system | setting | how to read | quantity | result
C=CC(=O)Nc1cc(Nc2nccc(-c3c[nH]c4ccccc34)n2)c(OC)cc1N(C)CCN(C)C | storage stability | human dried blood spots | 72 h, -80 °C, medium QC level |  | recovery | 90.1%
C=C(NC(=O)c1csc(-c2nc3c(cc2O)-c2nc(cs2)C(=O)NC(C(C)O)C(=O)NC(=C(C)OC)c2nc(cs2)C(=O)NC2c4nc(cs4)C(=O)NC(COC(=O)c4c5c6c(cccc6n4O)COC(=O)C(OC4CC(C)(O)C(N(C)C)C(C)O4)C2OC5)c2nc-3cs2)n1)C(N)=O (stereo not drawn) |  | cynomolgus monkey, both sexes | intravenous infusion | baseline: hepatic blood flow | blood clearance | 5.95%
O=C([O-])CN1CCN(CC(=O)[O-])CCN(C(CO)C(O)CO)CCN(CC(=O)[O-])CC1.[Dy+3] (stereo not drawn) | ICP-MS | cynomolgus monkey, feces | 3 days post-injection | baseline: dose | cumulative fecal excretion | 0.3%
COc1cccc(OC)c1-c1cc(C(=O)NC2(C(=O)O)C3CC4CC(C3)CC2C4)nn1-c1ccc(C(=O)N(C)CCCN(C)C(=O)[C@H](CCCCNC(=O)[C@H](CC(C)C)NC(=O)C2OC2C(=O)O)NC(=O)CN2CCN(CC(=O)[O-])CCN(CC(=O)[O-])CCN(CC(=O)[O-])CC2)cc1C(C)C.[177Lu+3] (mixture of isomers) |  | mouse HT-29 xenograft | 168 h, biodistribution | baseline: tumour over small intestine | tumour-to-small intestine ratio | 23.7
OC1(C(F)(F)F)CCN(c2nc(Nc3ccnc(C(F)(F)F)c3)nc(-c3cccc(C(F)(F)F)n3)n2)C1 (stereo not drawn) |  | monkey, plasma | oral, 3 mg/kg |  | half-life | 1100 ± 181 min
O=C([O-])CN1CCN(CC(=O)[O-])CCN(CC(CCCc2ccccc2[N+](=O)[O-])N(CC(=O)[O-])CC(=O)[O-])CC1.[177Lu+3] (stereo not drawn) | HPLC | human serum | 62 h, pH 7, 37 °C |  | intact radiolabelled complex | 100%
COc1ccc2nc(NC(=O)c3ccc(C(N)c4ccccc4)cc3)sc2c1 (stereo not drawn) |  | CD-1 mice, female, plasma | 10 mg/kg |  | terminal half-life | 242 min
CC(C)(O)c1ncc([S@](N)(=O)=NC(=O)Nc2c3c(cc4c2CCC4)CCC3)s1 | measured: infections and infestations | healthy human | oral, 100 mg, 14 days, SDD formulation, once daily |  | subjects with TEAEs | 17%
O=C([O-])CN1CCN(CC(=O)[O-])CCN(CC(=O)NCC2CCC(C(=O)NC(Cc3ccc4ccccc4c3)C(=O)NCCCCC(NC(=O)NC(CCC(=O)O)C(=O)O)C(=O)O)CC2)CCN(CC(=O)[O-])CC1.[68Ga+3] (stereo not drawn) | micro-PET/CT | mouse 22Rv1 xenograft, tumour | 2 h post-injection |  | maximum tumour uptake | 8.9 ± 0.88 %ID/g
COc1cccc(OC)c1-c1cc(C(=O)NC2(C(=O)O)C3CC4CC(C3)CC2C4)nn1-c1ccc(C(=O)NCCNC(=O)[C@H](CCCCNC(=O)[C@H](CC(C)C)NC(=O)C2OC2C(=O)O)NC(=O)CN2CCN(CC(=O)[O-])CCN(CC(=O)[O-])CCN(CC(=O)[O-])CC2)cc1C(C)C.[177Lu+3] (mixture of isomers) |  | mouse, HT-29 xenograft | 4 h post injection, biodistribution | baseline: tumour over lung uptake | tumour-to-lung ratio | 5.48
CCCCN1C(=O)c2cccc3c(NCCCCCN4CCOCC4)ccc(c23)C1=O |  | dichloromethane |  |  | fluorescence quantum yield | 1.03
O=C(Nc1cnccc1-c1ccc([18F])nc1)c1ccnc(NC(=O)C2CC2)c1 |  | mice, transgenic, GSK-3β, early-stage, muscle | intravenous, dose not given, 120 min, added: tariquidar 15 mg/kg i.v. pre-dose |  | SUV | 0.551

Excerpt of the above:
Compound | assay | test system | setting | how to read | quantity | result
O=C([O-])CN1CCN(CC(=O)[O-])CCN(CC(CCCc2ccccc2[N+](=O)[O-])N(CC(=O)[O-])CC(=O)[O-])CC1.[177Lu+3] (stereo not drawn) | HPLC | human serum | 62 h, pH 7, 37 °C |  | intact radiolabelled complex | 100%
